Measurements gathered from unrelated publications.
Each numbered part is a random draw from the data of one study; scales do not carry over between parts. “And” joins repeats or separate records; there may be more than shown.
Chain of UniProt P15170 (whole entry, looked up): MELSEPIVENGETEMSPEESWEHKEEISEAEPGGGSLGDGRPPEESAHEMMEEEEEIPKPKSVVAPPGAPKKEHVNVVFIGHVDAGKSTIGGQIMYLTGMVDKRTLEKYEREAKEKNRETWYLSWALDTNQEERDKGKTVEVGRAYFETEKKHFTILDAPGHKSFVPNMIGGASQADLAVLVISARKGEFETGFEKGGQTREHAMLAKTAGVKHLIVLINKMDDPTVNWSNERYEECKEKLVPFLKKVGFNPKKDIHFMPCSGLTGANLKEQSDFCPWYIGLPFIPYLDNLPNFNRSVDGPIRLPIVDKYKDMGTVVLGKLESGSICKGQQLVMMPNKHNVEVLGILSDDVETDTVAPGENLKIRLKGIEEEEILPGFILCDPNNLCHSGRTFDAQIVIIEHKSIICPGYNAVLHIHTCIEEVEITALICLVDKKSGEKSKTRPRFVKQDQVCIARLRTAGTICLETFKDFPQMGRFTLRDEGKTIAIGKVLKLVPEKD
Chain of UniProt Q13422 (whole entry, looked up): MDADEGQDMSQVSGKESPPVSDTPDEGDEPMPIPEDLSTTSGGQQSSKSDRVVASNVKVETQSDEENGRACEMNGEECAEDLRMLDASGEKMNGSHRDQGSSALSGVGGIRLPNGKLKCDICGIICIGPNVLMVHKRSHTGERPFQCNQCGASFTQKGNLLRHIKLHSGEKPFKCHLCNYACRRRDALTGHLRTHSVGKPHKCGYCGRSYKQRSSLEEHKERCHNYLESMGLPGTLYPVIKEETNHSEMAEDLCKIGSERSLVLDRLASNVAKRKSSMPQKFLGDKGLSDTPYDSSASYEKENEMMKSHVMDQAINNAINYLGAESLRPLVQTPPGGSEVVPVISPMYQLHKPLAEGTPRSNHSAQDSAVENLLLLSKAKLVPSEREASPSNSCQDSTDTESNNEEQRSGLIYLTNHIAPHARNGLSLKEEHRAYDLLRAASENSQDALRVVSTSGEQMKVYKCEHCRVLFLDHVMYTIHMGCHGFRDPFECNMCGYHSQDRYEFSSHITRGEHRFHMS
Chain of UniProt Q9UKT9 (whole entry, looked up): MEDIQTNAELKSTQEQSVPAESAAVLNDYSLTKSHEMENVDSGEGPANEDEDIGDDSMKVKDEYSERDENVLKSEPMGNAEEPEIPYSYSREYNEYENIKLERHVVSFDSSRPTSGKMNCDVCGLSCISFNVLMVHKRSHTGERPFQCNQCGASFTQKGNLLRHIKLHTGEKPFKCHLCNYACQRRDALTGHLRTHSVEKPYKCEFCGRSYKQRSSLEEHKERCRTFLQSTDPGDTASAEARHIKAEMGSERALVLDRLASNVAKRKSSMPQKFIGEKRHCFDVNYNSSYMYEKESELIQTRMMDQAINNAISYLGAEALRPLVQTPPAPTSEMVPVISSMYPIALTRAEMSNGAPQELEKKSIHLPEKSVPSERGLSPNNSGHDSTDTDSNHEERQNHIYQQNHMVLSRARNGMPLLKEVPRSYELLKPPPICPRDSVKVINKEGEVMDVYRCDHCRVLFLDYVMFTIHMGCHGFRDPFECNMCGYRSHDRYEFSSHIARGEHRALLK
Chain of UniProt P41143 (whole entry, looked up): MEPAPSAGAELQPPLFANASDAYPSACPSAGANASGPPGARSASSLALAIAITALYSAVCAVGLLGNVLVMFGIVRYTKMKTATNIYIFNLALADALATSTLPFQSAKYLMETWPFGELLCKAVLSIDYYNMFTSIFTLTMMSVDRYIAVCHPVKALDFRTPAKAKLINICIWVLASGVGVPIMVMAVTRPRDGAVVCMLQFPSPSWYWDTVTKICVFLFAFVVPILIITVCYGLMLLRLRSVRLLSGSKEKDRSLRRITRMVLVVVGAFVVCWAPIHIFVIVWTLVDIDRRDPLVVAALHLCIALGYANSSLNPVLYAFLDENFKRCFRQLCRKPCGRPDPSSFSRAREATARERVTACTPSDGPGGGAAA
Chain of UniProt Q9LIR4 (whole entry, looked up): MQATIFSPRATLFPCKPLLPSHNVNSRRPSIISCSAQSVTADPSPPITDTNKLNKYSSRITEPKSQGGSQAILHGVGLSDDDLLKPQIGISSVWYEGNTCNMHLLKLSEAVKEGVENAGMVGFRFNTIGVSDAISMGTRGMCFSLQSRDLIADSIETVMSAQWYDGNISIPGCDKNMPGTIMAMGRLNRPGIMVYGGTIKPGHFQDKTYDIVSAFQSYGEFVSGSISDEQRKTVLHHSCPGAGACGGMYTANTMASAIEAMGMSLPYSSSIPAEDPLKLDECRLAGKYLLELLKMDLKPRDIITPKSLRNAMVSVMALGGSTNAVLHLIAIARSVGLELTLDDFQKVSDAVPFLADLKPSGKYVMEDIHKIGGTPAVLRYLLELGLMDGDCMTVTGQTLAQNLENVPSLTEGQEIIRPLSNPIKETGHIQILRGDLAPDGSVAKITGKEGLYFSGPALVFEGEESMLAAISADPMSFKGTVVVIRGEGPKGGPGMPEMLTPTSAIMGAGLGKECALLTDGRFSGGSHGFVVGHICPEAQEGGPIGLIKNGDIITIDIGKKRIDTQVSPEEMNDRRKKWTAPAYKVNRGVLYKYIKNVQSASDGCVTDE

Study 1 — mode: degrader; method: HiBiT; cell line: HEK293
SMILES: Cn1cc(-c2cccc(CN3CCC4(CC3)COc3c4ccc4c3CN([C@@H]3CCC(=O)NC3=O)C4=O)c2)cn1
For DNA-binding protein Ikaros (Homo sapiens, UniProt Q13422); 123.5 nM: remaining protein read 98.6% and 96.8%.
It gave 102% and 99.2% for remaining protein (GSPT1 (Homo sapiens, UniProt P15170); 13.72 nM).
The remaining protein was 96.9% and 94.9% (Zinc finger protein Aiolos (Homo sapiens, UniProt Q9UKT9); 41.15 nM).

Further values, each from its own experiment
`C=CCN1C(=O)C(O)(C(=O)O)Oc2cc(F)ccc21` (stereo not drawn) gave a Kd of 408 µM (Dihydroxy-acid dehydratase, chloroplastic (DHAD, Arabidopsis thaliana, UniProt Q9LIR4); microscale thermophoresis).
With `N=C(N)NCCCCCCN1CCC23c4c5ccc(O)c4OC2c2nc4ccccc4cc2CC3(O)C1C5` (stereo not drawn) the EC50 was 0.00433 µM (Delta-type opioid receptor, with Gz (OPRD1, Homo sapiens, UniProt P41143); human cells).
`COc1cc(C(=O)OCCCN2CCCN(CCCOC(=O)c3cc(OC)c(OC)c(OCc4ccc([N+](=O)[O-])cc4)c3)CC2)cc(OC)c1OC` gave a tissue concentration of 369 ng/mL (male CD-1 mouse, dorsal root ganglia; subcutaneous, dose not given, 0.5 h).

Repeated from above (study 1):
For DNA-binding protein Ikaros (Homo sapiens, UniProt Q13422); 123.5 nM: remaining protein read 98.6% and 96.8%.
